Results collected from several papers.
Each line is one published result; not all experiments were run side by side. ± gives the spread as reported.

O=C(O)C[C@H](O)C[C@H](O)/C=C/c1c(C2CC2)nc2ccccc2c1-c1ccc(F)cc1 gave a Tmax of 0.5 h (male Sprague Dawley rat, NASH, plasma; oral, 2.5 mg/kg, median, added: vehicle).
The Tmax of CS(=O)(=O)c1ccc(-c2cnc(N)c(-c3ccc(C(F)(F)F)nc3)c2)cc1 is reported as 4 h (pregnant female Sprague-Dawley rat, plasma; oral, 10 mg/kg/day, gestation day 6).
CC(C)=CCC[C@](C)(O[C@@H]1O[C@H](CO[C@@H]2O[C@H](CO)[C@@H](O)[C@H](O)[C@H]2O)[C@@H](O)[C@H](O)[C@H]1O)[C@H]1CC[C@]2(C)[C@@H]1[C@H](O)C[C@@H]1[C@@]3(C)CC[C@H](O[C@@H]4O[C@H](CO)[C@@H](O)[C@H](O)[C@H]4O[C@@H]4O[C@H](CO)[C@@H](O)[C@H](O)[C@H]4O)C(C)(C)[C@@H]3CC[C@]12C gave a Tmax of 24 ± 4.1 h (Sprague Dawley rat, male, plasma; oral, 86 mg/kg, red ginseng extract).
Cc1nc2cccc(OCC(C)(C)C(=O)NC(C)C)c2c(N)c1C(=O)O has a Tmax of 0.33 h (male Sprague-Dawley rat, plasma; oral gavage, 30 mg/kg, day 7).
For CCCC[C@H](NC(C)=O)C(=O)N[C@H]1CCC(=O)NC[C@@H](C(=O)N[C@@H](Cc2c[nH]c3ccccc23)C(N)=O)NC(=O)[C@H](CCCNC(=N)N)NC(=O)[C@@H](Cc2ccccc2)NC(=O)[C@H](Cc2c[nH]cn2)NC1=O, the Tmax was 0.5 h (CD Sprague Dawley rat, male, plasma; subcutaneous, 25.0 mg/kg daily, day 1).
The Tmax of CC(C)=CCC[C@](C)(O[C@@H]1O[C@H](CO)[C@@H](O)[C@H](O)[C@H]1O)[C@H]1CC[C@]2(C)[C@@H]1[C@H](O)C[C@@H]1[C@@]3(C)CC[C@H](O)C(C)(C)[C@@H]3[C@@H](O[C@@H]3O[C@H](CO)[C@@H](O)[C@H](O)[C@H]3O)C[C@]12C is reported as 0.25 ± 0.06 h (Sprague Dawley rat, male, plasma; oral, 25 mg/kg, frozen ginseng extract).
The Tmax of CC(C)=CCC[C@](C)(O[C@@H]1O[C@H](CO)[C@@H](O)[C@H](O)[C@H]1O)[C@H]1CC[C@]2(C)[C@@H]1[C@H](O)C[C@@H]1[C@@]3(C)CC[C@H](O[C@@H]4O[C@H](CO)[C@@H](O)[C@H](O)[C@H]4O[C@@H]4O[C@H](CO)[C@@H](O)[C@H](O)[C@H]4O)C(C)(C)[C@@H]3CC[C@]12C is reported as 10.6 ± 2.3 h (Sprague-Dawley rat, plasma; oral, 200 mg/kg ginsenoside Rb1).
Cn1nnc2c(C(N)=O)ncn2c1=O gave a Tmax of 1.5 h (male athymic rat, intracranial U87 glioma, tumour extracellular fluid; oral, 50 mg/kg, uncorrected microdialysis, median, added: after cediranib).
For CCN1CCN(c2ccc(Nc3cc(N(C)C(=O)Nc4c(Cl)c(OC)cc(OC)c4Cl)ncn3)cc2)CC1, the Tmax was 3 h (Crl:WI(Han) rat, juvenile male, plasma; oral gavage, 1.0 mg/kg/day, postnatal day 17).
The Tmax of CC(C)=CCC[C@](C)(O[C@@H]1O[C@H](CO)[C@@H](O)[C@H](O)[C@H]1O)[C@H]1CC[C@]2(C)[C@@H]1[C@H](O)C[C@@H]1[C@@]3(C)CC[C@H](O)C(C)(C)[C@@H]3[C@@H](O[C@@H]3O[C@H](CO)[C@@H](O)[C@H](O)[C@H]3O[C@@H]3O[C@@H](C)[C@H](O)[C@@H](O)[C@H]3O)C[C@]12C is reported as 0.08 ± 0.02 h (Sprague Dawley rat, male, plasma; oral, 45 mg/kg, mixture of pure ginsenosides).
With COc1cccc(-c2n[nH]c(SCc3ccccn3)n2)c1OC the Tmax was 6 h (Sprague-Dawley rat, both sexes, plasma; oral, diet, 30 mg/kg/day, day 90).
